Measured values gathered from unrelated publications.
Numbered parts are unrelated; each lists some results of a single study. ± marks the error that the study gave.
UniProt P10635, sequence (whole entry, looked up): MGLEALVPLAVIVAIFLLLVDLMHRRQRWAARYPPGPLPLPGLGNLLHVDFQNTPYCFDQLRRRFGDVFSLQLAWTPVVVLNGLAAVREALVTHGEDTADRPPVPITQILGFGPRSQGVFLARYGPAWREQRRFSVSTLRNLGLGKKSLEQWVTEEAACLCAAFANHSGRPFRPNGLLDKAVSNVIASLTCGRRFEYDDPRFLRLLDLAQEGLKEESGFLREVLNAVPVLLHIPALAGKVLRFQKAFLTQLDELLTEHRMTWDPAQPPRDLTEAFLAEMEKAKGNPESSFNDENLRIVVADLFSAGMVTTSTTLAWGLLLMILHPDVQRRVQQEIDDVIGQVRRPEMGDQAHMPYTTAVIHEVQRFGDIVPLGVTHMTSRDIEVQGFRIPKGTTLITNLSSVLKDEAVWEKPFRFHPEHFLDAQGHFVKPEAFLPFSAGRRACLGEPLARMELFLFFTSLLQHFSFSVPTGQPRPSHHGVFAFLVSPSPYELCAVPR
UniProt P20813, sequence (whole entry, looked up): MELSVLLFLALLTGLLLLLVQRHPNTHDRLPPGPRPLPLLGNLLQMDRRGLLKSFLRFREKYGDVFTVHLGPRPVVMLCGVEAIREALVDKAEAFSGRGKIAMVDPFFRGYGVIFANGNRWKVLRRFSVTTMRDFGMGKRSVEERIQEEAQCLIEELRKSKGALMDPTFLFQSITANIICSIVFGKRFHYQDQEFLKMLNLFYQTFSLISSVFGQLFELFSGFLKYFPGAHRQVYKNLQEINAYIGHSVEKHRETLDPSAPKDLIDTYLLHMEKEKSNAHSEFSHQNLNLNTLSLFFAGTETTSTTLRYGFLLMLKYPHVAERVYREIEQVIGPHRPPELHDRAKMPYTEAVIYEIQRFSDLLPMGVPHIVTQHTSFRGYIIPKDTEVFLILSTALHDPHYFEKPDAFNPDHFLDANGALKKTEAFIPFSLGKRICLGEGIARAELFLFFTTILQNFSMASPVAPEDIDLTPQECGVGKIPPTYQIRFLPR

Set 1
Structure (SMILES): Cn1cc(-c2cccc(CN3CCC4(CC3)COc3c4ccc4c3CN([C@H]3CCC(=O)NC3=O)C4=O)c2)cn1
Read-out: enzyme activity
Medium: human liver microsomes
Relative to: negative control
CYP2C19: Cytochrome P450 2C19 (CYP2C19, Homo sapiens, UniProt P33261)
UniProt P33261, sequence (whole entry, looked up): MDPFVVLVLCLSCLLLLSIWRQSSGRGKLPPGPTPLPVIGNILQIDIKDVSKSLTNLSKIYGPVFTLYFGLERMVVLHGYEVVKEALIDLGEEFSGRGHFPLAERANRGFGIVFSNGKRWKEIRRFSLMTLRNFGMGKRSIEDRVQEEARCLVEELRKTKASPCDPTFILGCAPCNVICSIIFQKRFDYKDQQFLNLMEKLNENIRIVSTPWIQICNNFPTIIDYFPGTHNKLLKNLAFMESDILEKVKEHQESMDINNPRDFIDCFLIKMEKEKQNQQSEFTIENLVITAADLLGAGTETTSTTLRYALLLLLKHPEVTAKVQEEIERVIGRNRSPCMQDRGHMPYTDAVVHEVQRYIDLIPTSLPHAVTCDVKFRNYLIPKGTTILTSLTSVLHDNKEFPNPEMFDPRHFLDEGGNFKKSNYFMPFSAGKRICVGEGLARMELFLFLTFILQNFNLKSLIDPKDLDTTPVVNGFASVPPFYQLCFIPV
CYP3A4: Cytochrome P450 3A4 (CYP3A4, Homo sapiens, UniProt P08684)
UniProt P08684, sequence (whole entry, looked up): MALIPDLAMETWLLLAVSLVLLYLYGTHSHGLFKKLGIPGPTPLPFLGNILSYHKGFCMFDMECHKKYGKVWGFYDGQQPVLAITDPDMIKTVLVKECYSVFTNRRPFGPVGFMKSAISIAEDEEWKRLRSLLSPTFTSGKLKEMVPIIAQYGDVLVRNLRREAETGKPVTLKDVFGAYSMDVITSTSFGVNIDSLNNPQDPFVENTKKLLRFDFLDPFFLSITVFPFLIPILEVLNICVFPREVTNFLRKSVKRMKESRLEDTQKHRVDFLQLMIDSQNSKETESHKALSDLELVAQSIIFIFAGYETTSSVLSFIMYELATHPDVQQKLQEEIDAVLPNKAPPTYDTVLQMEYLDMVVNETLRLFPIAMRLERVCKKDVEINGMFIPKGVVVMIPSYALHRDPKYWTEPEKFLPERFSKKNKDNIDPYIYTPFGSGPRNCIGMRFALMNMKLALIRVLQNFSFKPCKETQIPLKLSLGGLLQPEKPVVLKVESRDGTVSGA
target	concentration	with	remaining activity
Cytochrome P450 2B6 (CYP2B6, Homo sapiens, UniProt P20813)	0.04 µM	–	83.6%
CYP2C19	1.11 µM	–	100%
CYP3A4	0.12 µM	testosterone substrate	98%
CYP3A4	10.00 µM	testosterone substrate	85%
CYP2C19	0.37 µM	–	99.9%
CYP3A4	10.00 µM	midazolam substrate	90.1%
Cytochrome P450 2D6 (CYP2D6, Homo sapiens, UniProt P10635)	10.00 µM	–	89.7%
CYP3A4	0.12 µM	midazolam substrate	104%
CYP2C19	0.12 µM	–	102%
CYP2C19	3.33 µM	–	98.1%

Set 2
Target: Sodium-dependent neutral amino acid transporter B(0)AT1 (SLC6A19, Homo sapiens, UniProt Q695T7)
UniProt Q695T7, sequence (whole entry, looked up): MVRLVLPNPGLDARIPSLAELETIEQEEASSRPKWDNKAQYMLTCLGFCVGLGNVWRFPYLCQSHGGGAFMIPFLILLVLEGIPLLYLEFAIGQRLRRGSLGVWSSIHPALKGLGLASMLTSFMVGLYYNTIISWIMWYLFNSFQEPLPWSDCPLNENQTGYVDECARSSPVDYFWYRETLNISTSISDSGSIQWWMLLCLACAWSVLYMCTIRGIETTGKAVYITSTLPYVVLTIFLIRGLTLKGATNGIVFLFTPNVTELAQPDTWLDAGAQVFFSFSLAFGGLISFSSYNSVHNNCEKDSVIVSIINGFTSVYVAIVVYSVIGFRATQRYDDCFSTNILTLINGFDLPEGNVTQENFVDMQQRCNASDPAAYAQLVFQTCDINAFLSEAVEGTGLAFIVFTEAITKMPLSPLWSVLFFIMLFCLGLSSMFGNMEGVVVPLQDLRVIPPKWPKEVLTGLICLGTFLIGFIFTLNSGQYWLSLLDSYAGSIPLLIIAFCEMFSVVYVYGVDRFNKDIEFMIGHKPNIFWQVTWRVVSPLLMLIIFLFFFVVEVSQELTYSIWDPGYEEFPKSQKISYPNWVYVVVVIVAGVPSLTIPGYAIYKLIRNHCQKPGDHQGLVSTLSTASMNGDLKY
Action: inhibitor
Technique: FLIPR membrane potential
Cells: CHO-BC
Compound	IC50 [nM]
CNC(=O)COc1cc(C)c(Cl)c(C)c1	15600 ± 10500
Cc1cc(OCC(=O)NC(C)C)ccc1Cl	2070 ± 263
Cc1cc(OCC(=O)NC(C)C)ccc1I	685 ± 39
CC(C)NC(=O)COc1ccc2ccccc2c1	2670 ± 350
CC(C)NC(=O)COc1cccc2ccccc12	6310 ± 1590
CC(C)NC(=O)COc1ccc(I)cc1	6150 ± 488
Cc1cc(NCC(=O)NC(C)C)cc(C)c1Br	1080 ± 177
Cc1cc(OCC(=O)NC(C)C)ccc1Br	1060 ± 386

Mixed results
Structure (SMILES)	cell line	read-out	technique	concentration	time	relative to	viability [%]
FC(F)(F)c1ccc(C2=NOC3(NC(c4ccccc4)=NO3)N2c2ccccc2)cc1 (centres unmarked)	Huh-7	cell growth or viability	ATP luminescence	10 µM	72 h	–	> 75
CC(C)NC(=O)N1CCC(NC2=Nc3cc(F)ccc3N(CC(F)F)c3ccc(Cl)cc32)C1 (stereo in doubt)	sample B colorectal tumour organoid	–	–	0.1 µM	–	DMSO	131

For quick reference, copied from above (set 2):
Compound	IC50 [nM]
CNC(=O)COc1cc(C)c(Cl)c(C)c1	15600 ± 10500
